# Published values of several laboratories.
# A part holds a random share of what one study measured. “And” joins repeats or separate records; there may be more than shown.

# Study 1
# SMILES: Cc1ncsc1-c1ccc(C(CO)NC(=O)C2CC(O)CN2C(=O)C(C(C)C)n2cc(-c3ccc(COc4c(-c5c(C)c(F)cc6[nH]ncc56)c(C5CC5)cc5c(N6CC7CC6CN7)nc(OC6CCOCC6)nc45)cc3)nn2)cc1 (centres unmarked)
# Time: 6 days
cell line,effect on,method,tested at,baseline,viability
HCT-116,cell growth or viability,ATP luminescence,30 nM,,105% and 85.9% and 93.5% and 96.5%
T24,cell growth or viability,ATP luminescence,3 µM,,97% and 102% and 90.6% and 93.8%
GP2d,cell growth or viability,ATP luminescence,10 nM,,36.1% and 37.1% and 39% and 42.9%
PaTu 8902,cell growth or viability,ATP luminescence,10 nM,,141% and 103% and 101% and 100%
ASPC1,cell growth or viability,ATP luminescence,10 nM,,64% and 69.5% and 62.1% and 77%
AsPC-1,,CellTiter-Glo,30 nM,DMSO,36.2% and 31.3% and 39.2%

# Study 2
# Structure (SMILES): C[C@@H]1CN(c2ccc(-c3cc(C(=O)NCCOCCOCCOCCOCCOCCOCCNC(=O)/C=C/c4[nH]cc(C(=O)N[C@@H](CC(N)=O)c5ccc(F)c(Cl)c5)c4-c4ccc(Cl)cc4F)ccc3F)cc2NC(=O)c2ccc(F)cc2C(F)(F)F)C[C@H](C)N1C
# Effect on: thermal unfolding
# Method: differential scanning fluorimetry
# Tested at: 5.5 µM
# Reading: higher = more unfolded
# DCAF1: DDB1- and CUL4-associated factor 1 (DCAF1, Homo sapiens, UniProt Q9Y4B6)
# Sequence of UniProt Q9Y4B6 (whole entry, looked up): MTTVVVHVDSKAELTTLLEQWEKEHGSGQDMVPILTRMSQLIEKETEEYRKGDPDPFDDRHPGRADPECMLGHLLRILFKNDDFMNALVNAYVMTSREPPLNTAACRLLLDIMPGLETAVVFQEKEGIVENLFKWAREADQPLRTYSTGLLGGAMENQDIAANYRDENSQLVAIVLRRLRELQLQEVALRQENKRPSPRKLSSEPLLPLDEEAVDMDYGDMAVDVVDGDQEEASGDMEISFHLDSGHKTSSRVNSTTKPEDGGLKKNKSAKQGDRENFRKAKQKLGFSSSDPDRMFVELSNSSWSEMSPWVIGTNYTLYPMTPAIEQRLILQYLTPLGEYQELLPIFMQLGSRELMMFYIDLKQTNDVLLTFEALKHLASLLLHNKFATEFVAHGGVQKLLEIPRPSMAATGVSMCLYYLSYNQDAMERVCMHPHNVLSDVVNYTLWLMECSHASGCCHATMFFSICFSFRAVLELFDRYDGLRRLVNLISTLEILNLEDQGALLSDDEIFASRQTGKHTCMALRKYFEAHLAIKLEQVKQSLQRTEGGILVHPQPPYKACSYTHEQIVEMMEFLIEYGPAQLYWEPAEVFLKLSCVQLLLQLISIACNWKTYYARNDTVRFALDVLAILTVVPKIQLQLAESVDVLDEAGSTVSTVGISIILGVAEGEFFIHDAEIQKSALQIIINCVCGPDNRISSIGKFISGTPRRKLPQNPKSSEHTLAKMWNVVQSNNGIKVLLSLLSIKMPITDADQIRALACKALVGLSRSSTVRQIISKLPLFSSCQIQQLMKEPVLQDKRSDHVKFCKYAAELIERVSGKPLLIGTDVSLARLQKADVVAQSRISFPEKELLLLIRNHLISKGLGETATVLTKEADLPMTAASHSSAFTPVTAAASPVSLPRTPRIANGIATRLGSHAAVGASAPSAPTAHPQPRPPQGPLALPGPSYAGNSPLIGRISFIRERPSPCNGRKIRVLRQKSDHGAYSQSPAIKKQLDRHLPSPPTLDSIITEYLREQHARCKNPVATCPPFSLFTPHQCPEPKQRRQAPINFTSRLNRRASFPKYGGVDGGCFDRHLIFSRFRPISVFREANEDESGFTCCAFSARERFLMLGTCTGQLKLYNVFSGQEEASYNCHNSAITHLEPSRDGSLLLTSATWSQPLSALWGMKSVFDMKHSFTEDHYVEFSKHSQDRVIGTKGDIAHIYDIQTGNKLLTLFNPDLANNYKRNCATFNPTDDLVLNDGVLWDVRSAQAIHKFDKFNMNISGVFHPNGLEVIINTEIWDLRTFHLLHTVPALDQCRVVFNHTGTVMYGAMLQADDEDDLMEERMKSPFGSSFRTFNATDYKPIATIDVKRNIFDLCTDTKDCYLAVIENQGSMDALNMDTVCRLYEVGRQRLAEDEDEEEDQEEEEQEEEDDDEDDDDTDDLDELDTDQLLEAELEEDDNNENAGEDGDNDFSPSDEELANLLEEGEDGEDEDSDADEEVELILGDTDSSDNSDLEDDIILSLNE
# WDR5: WD repeat-containing protein 5 (WDR5, Homo sapiens, UniProt P61964)
target,temperature,SYPRO Orange fluorescence
DCAF1,75.81 °C,43100 a.u.
WDR5,80.61 °C,65500 a.u.
WDR5,36.4 °C,13900 a.u.
DCAF1,81.21 °C,39200 a.u.
WDR5,33.2 °C,13800 a.u.
DCAF1,78.21 °C,41200 a.u.

# Further values, each from its own experiment
Structure (SMILES),target or system,test,test system,setting,scale,quantity,value
CCOc1ccc2nc(Sc3nc(Nc4ccc(I)cc4)nc(N4CCOCC4)n3)sc2c1,Gaucher fibroblasts,"qPCR, item: GBA1",,"1 µM, 24 h, unit not given",baseline: DMSO,mRNA level,1.06 and 2.21 and 1.63 and 1.72 and 1.8 and 1.18 and 1.39
Cc1nc(C)c(C=[N+]([O-])C(C)(C)C)nc1C,,HPLC-ECD,"MPTP mouse model, striatum",10 mg/kg,,striatal HVA content,0.686 ng/mg tissue and 1.12 ng/mg tissue and 0.488 ng/mg tissue and 0.84 ng/mg tissue and 0.687 ng/mg tissue and 0.695 ng/mg tissue and 0.935 ng/mg tissue
